# Experimental data collected from several papers.
# Every numbered part comes from another study and shows a few of its results, in no order. Changes are numbered by the printed parent chain.
# Sequence of UniProt P22612 (whole entry, looked up): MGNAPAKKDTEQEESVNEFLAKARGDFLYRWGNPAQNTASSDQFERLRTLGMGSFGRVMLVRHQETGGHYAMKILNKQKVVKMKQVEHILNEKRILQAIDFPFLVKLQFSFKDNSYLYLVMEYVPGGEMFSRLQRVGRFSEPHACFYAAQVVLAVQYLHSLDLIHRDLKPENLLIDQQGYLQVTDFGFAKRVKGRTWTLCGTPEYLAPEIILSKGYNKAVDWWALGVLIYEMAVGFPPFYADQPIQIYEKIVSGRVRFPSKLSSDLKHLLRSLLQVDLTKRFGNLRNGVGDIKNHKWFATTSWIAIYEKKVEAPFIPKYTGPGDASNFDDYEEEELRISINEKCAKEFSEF
# Sequence of UniProt O15530 (whole entry, looked up): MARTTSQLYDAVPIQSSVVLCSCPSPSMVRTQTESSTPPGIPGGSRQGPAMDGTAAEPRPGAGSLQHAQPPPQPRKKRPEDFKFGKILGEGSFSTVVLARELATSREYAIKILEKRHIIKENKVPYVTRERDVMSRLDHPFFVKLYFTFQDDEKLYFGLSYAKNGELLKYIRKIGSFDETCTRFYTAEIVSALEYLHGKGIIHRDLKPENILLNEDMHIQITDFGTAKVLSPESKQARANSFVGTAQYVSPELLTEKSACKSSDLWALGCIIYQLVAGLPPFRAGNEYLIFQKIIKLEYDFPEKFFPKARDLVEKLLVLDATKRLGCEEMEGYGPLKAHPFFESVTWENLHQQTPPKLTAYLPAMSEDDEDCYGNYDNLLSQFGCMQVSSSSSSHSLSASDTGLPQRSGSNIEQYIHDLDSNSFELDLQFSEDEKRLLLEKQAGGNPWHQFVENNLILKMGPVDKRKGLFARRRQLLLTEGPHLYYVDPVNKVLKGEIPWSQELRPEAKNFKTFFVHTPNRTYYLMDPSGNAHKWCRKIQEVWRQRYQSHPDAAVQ
# Sequence of UniProt P54760 (whole entry, looked up): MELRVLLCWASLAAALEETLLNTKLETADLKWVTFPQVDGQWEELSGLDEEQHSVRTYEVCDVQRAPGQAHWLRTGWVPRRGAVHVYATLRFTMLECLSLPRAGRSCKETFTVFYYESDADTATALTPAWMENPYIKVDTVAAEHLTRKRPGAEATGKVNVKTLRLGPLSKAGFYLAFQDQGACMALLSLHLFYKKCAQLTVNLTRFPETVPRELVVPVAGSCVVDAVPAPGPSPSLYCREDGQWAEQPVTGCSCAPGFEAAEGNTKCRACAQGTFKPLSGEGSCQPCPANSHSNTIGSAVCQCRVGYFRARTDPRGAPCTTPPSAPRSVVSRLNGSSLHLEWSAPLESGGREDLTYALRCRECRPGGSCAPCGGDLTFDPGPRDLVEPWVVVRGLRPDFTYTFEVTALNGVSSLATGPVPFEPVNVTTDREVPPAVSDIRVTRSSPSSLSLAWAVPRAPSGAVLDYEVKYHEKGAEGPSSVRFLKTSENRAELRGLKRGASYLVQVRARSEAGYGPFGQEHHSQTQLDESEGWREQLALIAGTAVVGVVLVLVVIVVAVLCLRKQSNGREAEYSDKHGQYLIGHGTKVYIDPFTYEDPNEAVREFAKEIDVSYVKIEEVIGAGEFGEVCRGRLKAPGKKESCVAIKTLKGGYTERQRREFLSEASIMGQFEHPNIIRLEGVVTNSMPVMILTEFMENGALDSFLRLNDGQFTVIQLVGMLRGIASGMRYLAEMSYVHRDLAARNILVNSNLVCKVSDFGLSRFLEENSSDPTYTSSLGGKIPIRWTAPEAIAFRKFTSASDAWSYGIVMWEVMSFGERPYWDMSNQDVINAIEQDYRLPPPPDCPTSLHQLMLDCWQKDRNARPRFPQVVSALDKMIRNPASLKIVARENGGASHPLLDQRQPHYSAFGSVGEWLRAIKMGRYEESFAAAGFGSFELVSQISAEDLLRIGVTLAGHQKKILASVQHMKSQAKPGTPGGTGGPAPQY
# Sequence of UniProt Q00534 (whole entry, looked up): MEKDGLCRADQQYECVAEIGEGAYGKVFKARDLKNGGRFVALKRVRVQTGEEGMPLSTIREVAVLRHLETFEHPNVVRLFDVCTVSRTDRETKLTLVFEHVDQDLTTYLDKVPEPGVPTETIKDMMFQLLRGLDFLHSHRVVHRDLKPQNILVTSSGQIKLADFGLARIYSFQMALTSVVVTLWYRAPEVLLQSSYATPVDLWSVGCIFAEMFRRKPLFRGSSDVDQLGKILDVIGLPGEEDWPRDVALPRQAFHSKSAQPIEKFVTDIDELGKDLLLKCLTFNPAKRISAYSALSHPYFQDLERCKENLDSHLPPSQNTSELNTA
# Sequence of UniProt P30530 (whole entry, looked up): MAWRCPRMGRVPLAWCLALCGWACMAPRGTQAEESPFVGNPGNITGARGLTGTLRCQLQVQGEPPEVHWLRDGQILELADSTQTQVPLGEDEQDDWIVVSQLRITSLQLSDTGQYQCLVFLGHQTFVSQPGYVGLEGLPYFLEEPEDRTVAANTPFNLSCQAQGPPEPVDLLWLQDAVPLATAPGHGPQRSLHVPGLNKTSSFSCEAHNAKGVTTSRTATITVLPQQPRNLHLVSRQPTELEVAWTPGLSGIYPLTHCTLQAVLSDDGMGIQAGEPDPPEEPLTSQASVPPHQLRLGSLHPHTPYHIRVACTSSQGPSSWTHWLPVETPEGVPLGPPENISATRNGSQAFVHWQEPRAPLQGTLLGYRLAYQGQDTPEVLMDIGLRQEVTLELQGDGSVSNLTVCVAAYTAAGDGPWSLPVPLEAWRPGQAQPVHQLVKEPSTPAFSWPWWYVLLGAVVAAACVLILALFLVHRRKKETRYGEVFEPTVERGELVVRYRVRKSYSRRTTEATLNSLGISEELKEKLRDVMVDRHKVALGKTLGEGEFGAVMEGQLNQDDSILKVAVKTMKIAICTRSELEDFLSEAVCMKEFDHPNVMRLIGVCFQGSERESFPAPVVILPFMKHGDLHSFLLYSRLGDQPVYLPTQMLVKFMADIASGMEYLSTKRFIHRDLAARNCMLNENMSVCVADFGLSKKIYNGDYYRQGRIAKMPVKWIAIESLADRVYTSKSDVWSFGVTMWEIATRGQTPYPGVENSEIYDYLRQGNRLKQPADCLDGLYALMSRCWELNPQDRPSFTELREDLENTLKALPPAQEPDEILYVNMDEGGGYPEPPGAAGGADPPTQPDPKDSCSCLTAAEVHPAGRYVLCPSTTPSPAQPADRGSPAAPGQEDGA
# Sequence of UniProt Q9H2X6 (whole entry, looked up): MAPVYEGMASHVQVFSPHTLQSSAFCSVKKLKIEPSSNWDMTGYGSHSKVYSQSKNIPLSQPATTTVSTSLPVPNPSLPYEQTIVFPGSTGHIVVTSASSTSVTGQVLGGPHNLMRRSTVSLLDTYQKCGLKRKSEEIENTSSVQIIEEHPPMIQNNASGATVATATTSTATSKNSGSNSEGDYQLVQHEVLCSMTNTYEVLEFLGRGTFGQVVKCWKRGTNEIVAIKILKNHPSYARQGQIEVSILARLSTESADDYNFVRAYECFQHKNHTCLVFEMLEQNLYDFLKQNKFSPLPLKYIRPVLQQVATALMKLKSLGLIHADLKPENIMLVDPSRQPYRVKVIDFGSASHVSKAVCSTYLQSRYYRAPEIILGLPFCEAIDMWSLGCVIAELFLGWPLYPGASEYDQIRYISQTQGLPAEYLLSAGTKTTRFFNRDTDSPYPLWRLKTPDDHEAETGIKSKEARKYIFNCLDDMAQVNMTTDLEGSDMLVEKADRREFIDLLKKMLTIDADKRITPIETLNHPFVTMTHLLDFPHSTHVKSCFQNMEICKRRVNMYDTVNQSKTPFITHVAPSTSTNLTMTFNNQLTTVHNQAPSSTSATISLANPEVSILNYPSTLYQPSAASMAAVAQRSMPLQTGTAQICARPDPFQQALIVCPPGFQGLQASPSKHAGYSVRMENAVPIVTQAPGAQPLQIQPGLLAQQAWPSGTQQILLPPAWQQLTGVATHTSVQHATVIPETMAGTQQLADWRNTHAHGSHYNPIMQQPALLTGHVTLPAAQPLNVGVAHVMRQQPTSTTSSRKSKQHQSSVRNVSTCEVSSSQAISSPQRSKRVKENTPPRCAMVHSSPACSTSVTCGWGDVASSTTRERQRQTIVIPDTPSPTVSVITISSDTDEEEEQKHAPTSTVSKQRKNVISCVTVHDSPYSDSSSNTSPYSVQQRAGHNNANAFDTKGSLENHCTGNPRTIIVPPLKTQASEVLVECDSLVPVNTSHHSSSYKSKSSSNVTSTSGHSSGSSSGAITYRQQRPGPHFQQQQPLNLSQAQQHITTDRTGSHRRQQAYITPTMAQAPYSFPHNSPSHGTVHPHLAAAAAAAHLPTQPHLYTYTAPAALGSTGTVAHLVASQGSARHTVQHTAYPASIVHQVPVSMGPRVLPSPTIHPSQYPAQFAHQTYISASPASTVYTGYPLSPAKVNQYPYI
# Sequence of UniProt P06493 (whole entry, looked up): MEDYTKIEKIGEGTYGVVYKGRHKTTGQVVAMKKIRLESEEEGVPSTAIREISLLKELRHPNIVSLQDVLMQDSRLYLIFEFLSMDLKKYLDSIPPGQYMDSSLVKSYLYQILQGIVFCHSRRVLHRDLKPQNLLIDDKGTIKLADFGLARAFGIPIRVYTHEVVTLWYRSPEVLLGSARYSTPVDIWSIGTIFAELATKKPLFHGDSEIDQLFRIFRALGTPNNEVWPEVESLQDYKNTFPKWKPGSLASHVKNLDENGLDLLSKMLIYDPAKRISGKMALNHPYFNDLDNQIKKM
# Sequence of UniProt Q16644 (whole entry, looked up): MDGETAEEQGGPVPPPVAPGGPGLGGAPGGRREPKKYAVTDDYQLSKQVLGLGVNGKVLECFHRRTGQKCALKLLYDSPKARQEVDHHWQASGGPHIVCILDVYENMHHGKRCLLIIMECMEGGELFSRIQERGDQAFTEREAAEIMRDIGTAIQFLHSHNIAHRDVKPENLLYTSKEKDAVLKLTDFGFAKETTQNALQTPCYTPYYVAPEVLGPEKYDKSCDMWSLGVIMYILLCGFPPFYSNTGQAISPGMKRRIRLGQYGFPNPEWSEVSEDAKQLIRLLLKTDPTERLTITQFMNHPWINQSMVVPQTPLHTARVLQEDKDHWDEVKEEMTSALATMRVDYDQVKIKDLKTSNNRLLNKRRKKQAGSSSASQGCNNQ

# Sample 1
# Target: PABPC1L2, full length, GST fusion (mouse, UniProt A0ABA7IW68)
# Method: RNAcompete
# Form: RNA
# Medium: in vitro
# Concentration: 20 nM
# Notes: 7-mer, probes averaged, single round
# Reference: mean of 7-mers
# Reading: higher = stronger binding
# Construct (chain): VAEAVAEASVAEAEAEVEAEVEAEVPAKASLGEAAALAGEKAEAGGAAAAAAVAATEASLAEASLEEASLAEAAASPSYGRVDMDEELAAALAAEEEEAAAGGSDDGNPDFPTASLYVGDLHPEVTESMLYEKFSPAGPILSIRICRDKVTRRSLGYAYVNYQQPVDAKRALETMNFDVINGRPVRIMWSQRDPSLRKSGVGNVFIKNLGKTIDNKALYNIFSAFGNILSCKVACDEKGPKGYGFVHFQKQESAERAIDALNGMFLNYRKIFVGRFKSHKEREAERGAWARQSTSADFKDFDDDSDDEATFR
Strand,7-mer Z-score
AAUCACG,0.234
GGCAGUA,0.242
CACAUAG,-0.0464
GCAAUGA,0.133
UUCAUUG,-0.258
ACUUAAG,-0.0409
UUUGCGA,-0.298
AACUCUU,-0.28

# Sample 2
# Target: RING finger protein unkempt homolog, zinc fingers 1-6, GST-SBP tag (UNK, Homo sapiens, UniProt Q9C0B0, residues 30-357)
# Method: RNA Bind-n-Seq
# Form: RNA
# Medium: in vitro
# Concentration: not given
# Notes: RNA with constant flanks, human-mouse chimeric sites, ends assumed
# Reference: input RNA pool
# Reading: higher = stronger binding
# All sequences stand within: GGGAGUUCUACAGUCCGACGAUC … CAACAGAGGAUUGAGCAUCA
# Construct (chain): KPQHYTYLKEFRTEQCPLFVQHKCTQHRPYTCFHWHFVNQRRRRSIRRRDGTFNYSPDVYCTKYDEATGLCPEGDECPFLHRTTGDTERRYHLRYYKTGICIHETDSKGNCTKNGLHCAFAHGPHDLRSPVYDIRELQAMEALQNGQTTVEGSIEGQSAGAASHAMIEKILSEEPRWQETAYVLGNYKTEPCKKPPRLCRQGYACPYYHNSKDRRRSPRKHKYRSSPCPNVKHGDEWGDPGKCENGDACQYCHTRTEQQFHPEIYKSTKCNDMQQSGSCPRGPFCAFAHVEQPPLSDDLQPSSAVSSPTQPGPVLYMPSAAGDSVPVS
Strand,bound/input enrichment
AAAGCCCAAGUAUUUUGAAAAAAUUCAAACAGAUUUGACAAGGGUAGCCAGCUUGGAGUCUAGCAACUUGCCAAUGUGUUUACCAAUCUGGGGGCUUGUUUUUCUUUCCCUUCCUUAAAU,0.331 ratio
GACUUGGGACCGUCCUGGGCUAGUACAAAUAGCGGCAGUGGAGGCUCGAGAGGAAAGUUGUUAGUGGGAGGCAGUGGUAGAGGCCGUCAUGUACGGUCCUUUACUCGAUAGAUGUGUUCU,0.504 ratio
ACCUCCCCCUCCCGCCUCACCCCACCCCCGCUUUUUGGAAAGUUUUUGGCUUUUUUUUUCCUUCCCCAUACAAAGUGGUUUUUACCACCCCCGCAAGGGUCUAUCGAAGGGCUUGACGGA,0.672 ratio
CAGACUGUGUCAUACUUUUUAGACAUUCACAUCAGACUUACAGAGCACCUGGCCACAUUCUAGGUUUGAAUUAUUUCUCAGCUAUGGAUAUGAUCAAAUGAGAACACUGCUUAACUAAUG,0.762 ratio
GUACUGCAGCAGCAGGGAAAACUGCAGGAAGCUCUGAUGCAUUAUAAGGAGGCUAUUCGAAUUAGUCCUACCUUUGCUGAUGCCUACUCCAAUAUGGGAAACACUCUAAAGGAGAUGCAG,0.154 ratio
GUAGCUGGGACUACAGAAAUGCUGGUAAUUUCAGUCACUUGCUGAUGACUUCUGAUGACCUAGCAAAUGUUGGCAUUGUUGACUGCUGAGAAGAUACACUCGCAAGGCCACGUCUAAGGU,0.0978 ratio
AAUUUCCUGUCAUACUUUUUAGACAUUCACAUCAGACUUACAGAGCACCUGGCCACAUUCUAGGUUUGUGUUAUUUCUAAGCCUUUUAUAUGAUCAAAUGAGAACACUGCUUAACUAAUG,0.356 ratio
AAAGAGAAACUAAAGCAAACUGAUUGAAAGAGGAUUGGCAAAGAGAAUUUCAUAGAGGAAACUAGGAUUAUUAGCAAACAUGAGUUAUAUUCCAGAGCGUCUCAGAAACCCCAGCCAAAC,2.66 ratio

# Sample 3
# Target: BATF2, bZIP domain (human)
# Method: DHFR protein complementation
# Medium: yeast
# Notes: single substitutions, most at no-binding floor
# Reference: wild-type JUN-FOS pair
# Reading: higher = stronger binding
# Starting sequence: JUN, bZIP domain (human); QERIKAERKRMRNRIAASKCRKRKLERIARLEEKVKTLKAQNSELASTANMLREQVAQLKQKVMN; partner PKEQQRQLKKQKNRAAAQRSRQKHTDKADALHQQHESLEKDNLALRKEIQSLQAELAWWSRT
Change,binding fitness [natural log]
K34D,-0.303
K34T,-0.395
A40Y,-0.607
A46Q,-0.201
A40G,-0.555
A46H,-0.418
R30T,-0.141
I28E,-0.33

# Sample 4
# Structure (SMILES): COc1cc2ncnc(N3CCN(C(=O)Nc4ccc(Oc5ccccc5)cc4)CC3)c2cc1OC
# Effect on: enzyme activity
# Mode: inhibitor
# Concentration: 0.5 µM
# Reference: control
target,remaining activity [%]
"MAPKAPK3 (Homo sapiens, UniProt Q16644)",94.6
"TSSK2 (Homo sapiens, UniProt Q96PF2)",79.1
"HIPK2 (Homo sapiens, UniProt Q9H2X6)",82.8
"EPHB4 (Homo sapiens, UniProt P54760)",99.3
"PRKACG (Homo sapiens, UniProt P22612)",103
"AXL (Homo sapiens, UniProt P30530)",91.7
"RPS6KA5 (Homo sapiens, UniProt O75582)",96.4
"PDPK1 (Homo sapiens, UniProt O15530)",92.3
"Cyclin-dependent kinase 1, with cyclin B (CDK1, Homo sapiens, UniProt P06493)",105
"EPHA4 (Homo sapiens, UniProt P54764)",93.2
"Cyclin-dependent kinase 6, with cyclin D3 (CDK6, Homo sapiens, UniProt Q00534)",100

# Some of these lines once more (sample 2):
Strand,bound/input enrichment
AAAGAGAAACUAAAGCAAACUGAUUGAAAGAGGAUUGGCAAAGAGAAUUUCAUAGAGGAAACUAGGAUUAUUAGCAAACAUGAGUUAUAUUCCAGAGCGUCUCAGAAACCCCAGCCAAAC,2.66 ratio
AAUUUCCUGUCAUACUUUUUAGACAUUCACAUCAGACUUACAGAGCACCUGGCCACAUUCUAGGUUUGUGUUAUUUCUAAGCCUUUUAUAUGAUCAAAUGAGAACACUGCUUAACUAAUG,0.356 ratio
ACCUCCCCCUCCCGCCUCACCCCACCCCCGCUUUUUGGAAAGUUUUUGGCUUUUUUUUUCCUUCCCCAUACAAAGUGGUUUUUACCACCCCCGCAAGGGUCUAUCGAAGGGCUUGACGGA,0.672 ratio
GACUUGGGACCGUCCUGGGCUAGUACAAAUAGCGGCAGUGGAGGCUCGAGAGGAAAGUUGUUAGUGGGAGGCAGUGGUAGAGGCCGUCAUGUACGGUCCUUUACUCGAUAGAUGUGUUCU,0.504 ratio
